Measurements of several laboratories.
Each numbered part is a random draw from the data of one study; scales do not carry over between parts. Substitutions count along the parent as printed.

Block 1 — method: RNA Bind-n-Seq; molecule type: RNA; sample: in vitro; tested at: 365 nM; relative to: no-protein control; direction: higher = stronger binding; endpoint: RBNS enrichment (R)
Target: RNA binding protein fox-1 homolog 2, RRM domain, GST-SBP tag (RBFOX2, Homo sapiens, UniProt O43251-10, residues 100-194)
Setting: natural RNA segment, single round, ends assumed
Shared flanks, not repeated: GGGAGUUCUACAGUCCGACGAUC … UGGAAUUCUCGGGUGCCAA
GUAUUUGAUUAACCUAAACAGUUUAAGCAUUUUGAAUUAGUUGGAGUUUAAAUGGAUUACAUUUGGUGUAUAUUGUCUUCAUUGAAAAGAUAUUGUUGGAUAUGCCACAU: 0.513
GAGCCAUCCUUGUUUCCAAAUAUGACCCUUCGCUUGAGGGCAACUGCAUAGGUACAUCUAACUCUGGACUGGCAUGCACAUUGUCAUGUGCAGCUUUGCAUAUACACACA: 1.28
AAAUCCUCUGUUUAGCUUAGUUGCACAAAAGGUAGUAUGUCCAGUGGCUAGAGGUGGGGUGGGAAGAGAGGAGGCCAGGCCAGGCCCUCAGGAAUUCCCUGGUUUCCACU: 0.665
UGGCAGCACAGACCCCUGGAGGCCCCGGAGGACCCGAGGCGGGGUCCAAGGCUGAGUGAGAGCCGGCCAUGCCUCCCCUCCUACUCCUCUGAAUCUCCCGACCUUGGUCC: 0.748
UCAUUUUGUUUUGGGUUGGUCCAAUUUUAAAAGGAAAUACUACAAUAAAAAUGUUAACCAGAAGGUAACCCUGAGUGUGAUUGUGAGAGAGACACGCCUUUUUACUAGUU: 0.966
CACUUAAGGAAGGAUGGCUCUCUCUCAUCUGUCUCUUGUUCCUUAUUGUUGCAGAGCUAGCUCCACAGAGUCAGAAAGUUCUGACCCACAUUAGACCCGUGUGCGCUGCU: 0.459
UGGUUUCUCUGAAAAAACGAGGUAAUUCCCUGAGCCCAACCCUGAUCCUCAAGGACCUGUAAUUGUGUGGUAUUUAAAAUUAAAAUAACAUUAUUUUUAUUUUGACUUUU: 0.463
GCCGUUAUUUACCCCUGAUGUUAUUUAUGACUAUGUGCCGAUUCCUGCUCGGGCUGUUUGCUGUUGGCUGGUAAUAAUAUAUUUGAUUUAAAUGCUGUUGACUGUGCUAU: 1.14
CUUUUUACCCCUCCCCCUUCUGCCAUGUAACUGGAGGAUGUGCUAUGAGGUUGCAAACAGCUGGACUGUCAGGCUGCUUUUUCCCAGAUGCCUCCCUGCCUCCCUCCCUC: 0.73
AGGCUCGUGGAGAGGCUGAGGGAAUGUUACUAAGUUUCCCUCCGUUUGUCUCCAGUCUGGUGCCAGGCAGUAGAGUGGAAAAGGAGGCUAUUUUUUUAUUCUAUGUGCAC: 1.28
AGAGCUCCCUUCCCACCUCUCUGCCCAGCCUUGUUACCUCACUUCUGCUCUGGCCAUGGCUGUGAAGGGCCCAGCCAGCUCCCUGUUUUGAUGUUCUGUGCAACAGCUCC: 0.491
GUGUUGGGACAGCAGGAUAGGGUUCUAAAGGUGGUUUUCUAUCCAAACGACCAAAAAACCAACAGUAACACCAGUGAAACCCCACACUGUCGGGCUUAUAAAAAUCUGUG: 0.445

Block 2 — target: CCND2, cyclin fold, Cln2 fusion (human); method: yeast growth competition, sequencing; sample: yeast; setting: weak parent motif; relative to: not given; direction: higher = stronger binding; endpoint: normalised enrichment score
Starting sequence: BORA docking peptide (human); SSLRRKLFLDGNG
SSLRRKLALDGNG [F8A]: 0.324
SSLARKLFLDGNG [R4A]: 0.0335
SSLRRKLFFDGNG [L9F]: -0.215
SSLRRKLFADGNG [L9A]: -0.443
SSLRRKLFLDGNA [G13A]: -0.111
ASLRRKLFLDGNG [S1A]: 0.141
SSLRKKLFFDGNG [R5K L9F]: 0.331
SSLRRKLFLAGNG [D10A]: -0.0993

Block 3 — method: RNA Bind-n-Seq; molecule type: RNA; sample: in vitro; tested at: not given; relative to: input RNA pool; direction: higher = stronger binding; endpoint: bound/input enrichment
Target: RING finger protein unkempt homolog, zinc fingers 1-6, GST-SBP tag (UNK, Homo sapiens, UniProt Q9C0B0, residues 30-357)
Chain of UniProt Q9C0B0 (30-357, looked up): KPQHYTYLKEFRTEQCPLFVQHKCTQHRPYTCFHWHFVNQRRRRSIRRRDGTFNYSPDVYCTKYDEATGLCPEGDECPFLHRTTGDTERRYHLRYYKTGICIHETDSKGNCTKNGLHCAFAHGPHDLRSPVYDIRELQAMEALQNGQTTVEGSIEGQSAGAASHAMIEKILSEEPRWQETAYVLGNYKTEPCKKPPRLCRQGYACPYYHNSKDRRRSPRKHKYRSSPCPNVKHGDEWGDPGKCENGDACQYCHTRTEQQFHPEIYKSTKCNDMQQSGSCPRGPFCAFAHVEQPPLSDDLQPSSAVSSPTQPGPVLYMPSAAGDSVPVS
Setting: RNA with constant flanks, human and mouse sites, ends assumed
Shared flanks, not repeated: GGGAGUUCUACAGUCCGACGAUC … CAACAGAGGAUUGAGCAUCA
AUAAACACAUUUAAAUUACUGUCAUAUGCUUCCUAUUGCAUUGAGCAUGGUGAUCUGGAGCUAGCAGCAAAGUUUGUCAAUCAGCUGAAGGGGGAAUCCAGACGAGUGGCACAGGACUGG: 0.592 ratio
UAGUGUUUGCUUUGUGAACAUGUGUAUUGUAUAUAUUCUGUAUAGUUAUAUUGUACUGAAAUUAGCUUGUUUGAUAUAAGGAAAAUAUGUAUUGAGUACCUUUUUGCUAGCCUGAUUGUU: 9.52 ratio
AAAGUCUCCAAUUUGGUUUUCAACCUUAUCUACAAGGUUGAAGAAUUCACUGUGUUUUUCUAGGUUUCAGAGCCACUUGAUGUCUGCUACAAUGAGCUUGUGCAGUAGGUGCUAUAGAUC: 0.344 ratio
CUGAUCGGGAAGCAGGAGGGGCGAAAUAUCGAAGUGAUGAACUCCUUUGAGCUGCUGUCCCACACCGUGGAAGAGAAGAUUAUCAUUGACAAAGAAUAUUAUUACACCAAGGAGGAGCAG: 0.351 ratio
GAUAUUGUCUUUGCAGAAAAUCUUAGCCGACAUUUUUAUGGCAUCCAAAGAGGUGACAUUGUAAUUGCAAAAAGCCCAAGUGAUCCAAAAUCAAAUAUCUGUAAAAGAGUAAUUGGUUUG: 0.178 ratio
GCUUCCAAGAAGGUUUUGGAUACUAGAAGUAUUAAUCUAUGGCUUUUCUCCCAGUAAAACCAUAGGCCUGAAGUUCACAUUGGGUCUUUAAAUCUUUUAGAUAUAUACUGGUCAUUUCAG: 1.23 ratio
GUUCUUGACCCAUUGAUUGUAUCUGCUGGAAGAAGUCAUCUGGGCCUGUUGGGUUGGUAUCAGAUCAGGGGAUUAUGCAUCCAGCCCCUGGCCCCUUUAAUCUAUUUGCCUCUUUUUAAA: 0.326 ratio
AUAGAUAUAAAAUUUCCUCCCAAGAUGAAUCAUCCAGAUCUUCUGAUACAAGUGCUUGGAAUUCUGAAAAAAAGUGCAUUAUAUAUAGAUGUGGAAUCUGAUUUUCAUGCUAAAGUUCCU: 1.05 ratio
UUCAAAAUCGGAGCAUGUCGUCAUGGAGACAGAUGUUCUCGGUUGCACAAUAAACCAACCUUUAGCCAGACCAUUGCCCUCUUGAACAUUUACCGUAACCCUCAAAACUCUUCCCAGUCU: 0.179 ratio
AAAGAACCUCUCUCUGAUGAAGAUGAGGAAGACAAUGAUGAUGUUGAACCCAUUUCUGAAUUUCGAUUUGUGCCCAGUGAUAAGUCAGCAUUGGAGGCGAUGUUCACAGCAAUGUGUGAG: 0.277 ratio
AAAGUGAAACUGGCAGCUGUGGAUGCUACAGUCAAUCAGGUUCUGGCCUCCCGAUACGGGAUUAGAGGAUUUCCUACAAUCAAGAUAUUUCAGAAAGGCGAGUCUCCUGUGGAUUAUGAC: 0.215 ratio

Block 4 — method: protein-binding microarray; molecule type: double-stranded DNA, one strand shown; sample: in vitro; tested at: 2540 nM top; setting: 60-bp whole probe; together with: salmon DNA 0.4 mg/ml; relative to: random background probes; direction: higher = stronger binding; endpoint: fitted relative affinity; shared flanks, not repeated: GCCTAGCAC … GTCTTGATTCGCTTGACGCTGCTG
Target: Interferon regulatory factor 3, full length, phosphomimetic (IRF3, Homo sapiens, UniProt Q14653, residues 1-427, S386D/S396D/S398D/S402D/T404D/S405D)
Target sequence (chain): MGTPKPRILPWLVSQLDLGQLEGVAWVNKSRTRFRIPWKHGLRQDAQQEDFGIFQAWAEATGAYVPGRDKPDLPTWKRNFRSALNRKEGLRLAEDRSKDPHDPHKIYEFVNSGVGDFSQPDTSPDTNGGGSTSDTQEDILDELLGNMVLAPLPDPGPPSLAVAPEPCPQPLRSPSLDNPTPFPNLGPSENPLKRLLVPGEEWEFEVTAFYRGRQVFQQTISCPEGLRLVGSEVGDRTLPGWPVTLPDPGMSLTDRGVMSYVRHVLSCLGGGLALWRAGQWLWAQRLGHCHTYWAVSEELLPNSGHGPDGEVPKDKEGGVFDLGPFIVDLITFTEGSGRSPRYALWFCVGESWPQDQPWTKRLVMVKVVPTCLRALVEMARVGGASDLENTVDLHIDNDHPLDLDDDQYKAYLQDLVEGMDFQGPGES
TTAGGCCTCGGACTGGGTTAGTGCTAG: -1.02 z-score
TTGGGTATCGGGTATCGGTTAGTGCTA: 1.21 z-score
TTAGGTCTGGGTATCGGTTAGTGCTAG: 0.378 z-score
TCATTTTTTTCTTTTATACTGTGCTAG: 1.95 z-score
GACGGACTGGGACTGGAGACGTGCTAG: -0.736 z-score
TCAATTCTCCACTTGTGACTGTGCTAG: 1.31 z-score
GACGGTTTCGGGACTTGGGACGTGCTA: 4.22 z-score
CTTTGACTCTTTCTGTCAGTGTGCTAG: 0.875 z-score
ATGATTGGTTGAACATGAACGTGCTAG: -0.24 z-score
GACGATATCAGTGTCGAGACGTGCTAG: 0.581 z-score
GGCGGTATCGACACTGGGGACGTGCTA: 0.494 z-score
GACGATTTCCGTTTCGAGACGTGCTAG: 5.65 z-score
TTAGGTCTACTTTTCCTTTAGTGCTAG: 1.78 z-score
TCAGGACTCAGGTCTCCCACTGTGCTA: 0.151 z-score
GACGGTCTCGGACTGGGGCCGTGCTAG: -0.0434 z-score
GACGGTTTCGGTCTCGGGAGGTGCTAG: 8.89 z-score
ACTGATTTCCACTTTCTTAAGTGCTAG: 2.91 z-score
AACTTGGCAGGAGCGAATGGGTGCTAG: -0.338 z-score
TTAGGTATCGGTATCGCTTAGTGCTAG: 4.57 z-score
TTAGAACTGGGGTTTCTATTAGTGCTA: -0.145 z-score
TTAGATAACAGTCTCGATTAGTGCTAG: -0.0292 z-score
AATGGAACAAATATGTTTATGTGCTAG: 0.392 z-score
GACGGACTAGACACTGGGGACGTGCTA: -0.557 z-score
CATGCTCTTATATACCTGTATGTGCTA: 0.476 z-score
GAGGGTCTCCTTATCCTGACGTGCTAG: 1.38 z-score
